# Experimental data pooled from the literature.
# Protocols differ between the studies behind these lines. Numbers after ± are the reported error.
Compound,test,system,setting,how to read,endpoint,result
O=C(Nc1ccccc1)C1CCN(C(=O)Oc2cccnc2)CC1,psychotropic effects VAS,healthy women,60 mg,"reference: pre-dose baseline, direction not given",change in Colors score,0
C[C@]1(CO)Cc2ncn(-c3ccc(C#N)c(Cl)c3)c2C(=O)O1,,human,40 mg single dose,,subjects with drug-related orthostatic hypotension,0%
CCCCCOc1ccc(-c2ccc(-c3ccc(C(=O)N[C@H]4C[C@@H](O)[C@@H](OCC[N+](C)(C)C)NC(=O)[C@@H]5[C@@H](O)[C@@H](C)CN5C(=O)[C@H]([C@@H](C)O)NC(=O)[C@H]([C@H](O)[C@@H](O)c5ccc(O)cc5)NC(=O)[C@@H]5C[C@@H](O)CN5C(=O)[C@H]([C@@H](C)O)NC4=O)cc3)cc2)cc1,,"adult ICU patients, mITT, serum","dose not given, Follow-up",,albumin,36.9 g/L
COc1cc2c(Oc3ccc4[nH]c(C)cc4c3F)ccnc2cc1OCC1(N)CC1,,paediatric recurrent refractory sarcoma,10 mg,,Neutropenia incidence,0%
COc1ccc(CCC2CCCC(CCc3ccc(OC)cc3)N2C[C@@H](O)CO)cc1.Cl (stereo in doubt),,rabbit Purkinje fibres,"0.3 µM, cycle length 1 s",reference: baseline,Vmax change,1.4 ± 3.3%
CN1CC[C@@H](c2c(O)cc(O)c3c(=O)cc(-c4ccc(C(F)(F)F)cc4Cl)oc23)[C@@H]1CO,measured: Syncope,relapsed B-cell malignancies,"oral, 100 mg, grade 3-4, intermittent dosing",,patients with adverse event,0%
CCCCCc1cc(O)c(C/C=C(\C)CCC=C(C)C)c(O)c1,LC-MS/MS,"Scn1a+/− mice, both sexes, plasma","intraperitoneal, 10 mg/kg, after hyperthermia protocol",,plasma concentration,92 ± 11 ng/mL
CCc1ccc(CC/C=C/c2ccc3c(c2)C(=O)CC3)cc1,,"Sprague-Dawley rat, male","oral, 120 mg/kg/day, 14 days",,MCHC,310 g/L
CC(C)(C(=O)NC1C2CC3CC1CC(C(N)=O)(C3)C2)N1CCN(c2ccc(C(F)(F)F)cn2)CC1 (stereo not shown),,"human, plasma","1 mg once daily, 5 days, median",,dose-normalised free Cmax,0.096 (ng/mL)/mg
Cc1ccc(F)c2cc(C(=O)N[C@@H]3CCC[C@H](N4CC[C@H](N(C)S(C)(=O)=O)C4)C3)[nH]c12,,CD1 mouse,"intravenous, 1 mg/kg",,terminal half-life,186 min
CCCCCCCCCCC[C@H](OC1OC[C@H](O)[C@@H](O)[C@@H]1O)[C@H](O)[C@H](O)C[C@@H]1CC(=O)N[C@H](CO)C(=O)N[C@H]([C@H](O)c2ccc(O)cc2)C(=O)N[C@H](CCN)C(=O)NCC(=O)N[C@@H](CC(N)=O)C(=O)N[C@@H](CO)C(=O)N[C@@H]([C@H](O)C(N)=O)C(=O)N1 (stereo partly shown),LC-MS/MS,rabbit plasma,"800 ng/mL, 6 freeze-thaw cycles",reference: nominal concentration,"freeze-thaw stability, deviation",-3.56%
CO[C@H]1C[C@@H]2CC[C@@H](C)[C@@](O)(O2)C(=O)C(=O)N2CCCC[C@H]2C(=O)O[C@H]([C@H](C)C[C@@H]2CC[C@@H](OC(=O)NCCOCCOCCOCCOCCOCCOCCOCCOCCC(=O)N3CCc4cc(Cn5nc(-c6ccc7oc(N)nc7c6)c6c(N)ncnc65)ccc4C3)[C@H](OC)C2)C[C@@H](O)[C@H](C)/C=C(\C)[C@@H](O)[C@@H](OC)C(=O)[C@H](C)C[C@H](C)/C=C/C=C/C=C/1C,,patients with advanced solid tumours,"intravenous, dose not given, any grade",,incidence of Diarrhea TRAE,17.5%
N=C(N)NCCC[C@@H](NC(=O)[C@@H](N)Cc1ccccc1)C(=O)N[C@@H](Cc1ccccc1)C(=O)N[C@@H](CCCCN)C(N)=O,,"early Huntington's disease patients, urine","subcutaneous, 15 mg, 5.833 h, mean",,fraction of dose excreted in urine,33.7%

# Excerpt of the above:
Compound,test,system,setting,how to read,endpoint,result
Cc1ccc(F)c2cc(C(=O)N[C@@H]3CCC[C@H](N4CC[C@H](N(C)S(C)(=O)=O)C4)C3)[nH]c12,,CD1 mouse,"intravenous, 1 mg/kg",,terminal half-life,186 min
